# Measured values pooled from the literature.
# Values joined by “and” are separate records of one study, mostly repeats; a detail may differ. Numbers after ± are the reported error.
# rep main protease: Replicase polyprotein 1ab, main protease (rep, Severe acute respiratory syndrome coronavirus 2, UniProt P0DTD1)
Compound,target or system,assay,test system,conditions,endpoint,value
COc1cc(/C=C2\CCCN([C@@H](C)c3ccc(F)cc3)C2=O)ccc1-n1cnc(C)c1,rep main protease,"viral replication, Gluc reporter",SARS-CoV-2,20 µM,inhibition,-2.73%
Nc1ncnc2c([C@@H]3N[C@H](CO)[C@@H](O)[C@H]3O)c[nH]c12,Junin virus,viral replication,"HeLa, Romero",1.6 µM,inhibition,0%
N#C[C@@]1(c2ccc3c(N)ncnn23)O[C@H](CO)[C@@H](O)[C@H]1O,Severe acute respiratory syndrome coronavirus 2,"viral replication, inhibitor, qPCR",human,48 h,EC50,0.74 µM
CC(C)N(CCC(=O)c1ccc2ccccc2c1)Cc1ccccc1,Severe acute respiratory syndrome coronavirus 2,antiviral activity,Huh-7,96 h,EC50,> 100 µM
CC[C@H]1CN2CCc3cc(OC)c(OC)cc3[C@@H]2C[C@@H]1C[C@H]1NCCc2cc(OC)c(OC)cc21,Severe acute respiratory syndrome coronavirus 2,"viral replication, inhibitor, qPCR",Vero C1008,24 h,EC50,0.00771 µM
Cc1cc(-c2ccc(/N=N/c3ccc4c(S(=O)(=O)O)cc(S(=O)(=O)O)c(N)c4c3O)c(C)c2)ccc1/N=N/c1ccc2c(S(=O)(=O)O)cc(S(=O)(=O)O)c(N)c2c1O,Severe acute respiratory syndrome coronavirus 2,antiviral activity,Huh-7,96 h,EC50,< 50 µM
Cc1cccc(/C=N/Nc2cc(N3CCOCC3)nc(OCCc3ccccn3)n2)c1,Severe acute respiratory syndrome coronavirus 2,"viral replication, inhibitor, luciferase",Calu-3,,EC50,3.06 µM
CCN1CCN(Cc2ccc(Nc3ncc(F)c(-c4cc(F)c5nc(C)n(C(C)C)c5c4)n3)nc2)CC1,Severe acute respiratory syndrome coronavirus 2,viral replication,"Vero C1008, USA_WA1/2020",72 h,EC50,3.16 µM
CCC(CC)COC(=O)[C@H](C)N[P@](=O)(OC[C@H]1O[C@@](C#N)(c2ccc3c(N)ncnn23)[C@H](O)[C@@H]1O)Oc1ccccc1,Severe acute respiratory syndrome coronavirus 2,"cytopathic effect, inhibitor",,,EC50,2.6 µM
CCC[C@H](NC(=O)[C@@H]1[C@H]2CCC[C@H]2CN1C(=O)[C@@H](NC(=O)[C@@H](NC(=O)c1cnccn1)C1CCCCC1)C(C)(C)C)C(=O)C(=O)NC1CC1,Severe acute respiratory syndrome coronavirus 2,"viral replication, inhibitor",Vero C1008,,EC50,~40 µM
C[C@@H]1CC[C@]2(C(=O)O[C@@H]3O[C@H](CO)[C@@H](O)[C@H](O)[C@H]3O)CC[C@]3(C)C(=CC[C@@H]4[C@@]5(C)C[C@@H](O)[C@H](O)C(C)(C)[C@@H]5CC[C@]43C)[C@@H]2[C@]1(C)O,rep main protease,"reporter gene (mKate2), inhibitor",,20 µM,inhibition,-0.0103%
Cc1cnc(C(=O)N[C@H]2CCCCC/C=C\[C@@H]3C[C@@]3(C(=O)NS(=O)(=O)C3CC3)NC(=O)[C@@H]3C[C@@H](Oc4nc5ccccc5c5ccccc45)CN3C2=O)cn1,Severe acute respiratory syndrome coronavirus 2,"viral replication, inhibitor",Vero C1008,,EC50,22 µM
CC1=C[C@]23C(=O)[C@@H](C=C(CO)[C@@H](O)[C@]2(O)[C@H]1O)[C@H]1[C@@H](C[C@H]3C)C1(C)C,Severe acute respiratory syndrome coronavirus 2,viral replication,"Vero C1008, USA_WA1/2020",72 h,EC50,0.06 µM
CCCCOc1cc(C(=O)NCCN(CC)CC)c2ccccc2n1,Severe acute respiratory syndrome coronavirus 2,"cytopathic effect, inhibitor",,,EC50,63.2 µM
O=c1c2ccccc2[se]n1-c1ccccc1,Severe acute respiratory syndrome coronavirus 2,antiviral activity,Huh-7,96 h,EC50,> 100 µM
CC(C)(C)[C@@H]1NC(=O)O[C@@H]2CCC[C@H]2OC/C=C/C(F)(F)c2nc3ccccc3nc2O[C@@H]2C[C@@H](C(=O)N[C@]3(C(=O)NS(=O)(=O)C4(C)CC4)C[C@H]3C(F)F)N(C2)C1=O,Severe acute respiratory syndrome coronavirus 2,"viral replication, inhibitor",Vero C1008,,EC50,> 178 µM
CCC(CC)COC(=O)[C@H](C)N[P@](=O)(OC[C@H]1O[C@@](C#N)(c2ccc3c(N)ncnn23)[C@H](O)[C@@H]1O)Oc1ccccc1,Severe acute respiratory syndrome coronavirus 2,"viral replication, inhibitor, qPCR",human,48 h,EC50,0.14 µM
Cc1cccc(C)c1OCC(=O)N[C@@H](Cc1ccccc1)[C@@H](O)C[C@H](Cc1ccccc1)NC(=O)[C@H](C(C)C)N1CCCNC1=O,Severe acute respiratory syndrome coronavirus 2,"cytopathic effect, inhibitor",,,EC50,7.77 µM
Cn1cnc(Cn2c(=O)[nH]/c(=N\c3cc4cn(C)nc4cc3Cl)n(Cc3cc(F)c(F)cc3F)c2=O)n1,,,"human, mild renal impairment","oral, 375 mg","anaemia TEAE, Severe severity",0%
CC[C@H](C)[C@H](NC(=O)[C@H](CC(C)C)NC(=O)[C@H](Cc1c[nH]c2ccccc12)NC(=O)[C@H](CCC(N)=O)NC(=O)[C@@H](NC(=O)[C@H](Cc1ccccc1)NC(=O)[C@H](C)NC(=O)[C@H](CCCCNC(=O)COCCOCCNC(=O)COCCOCCNC(=O)CC[C@H](NC(=O)CCCCCCCCCCCCCCCCCCC(=O)O)C(=O)O)NC(=O)[C@H](CCC(N)=O)NC(=O)[C@H](C)NC(=O)[C@@H](NC(=O)[C@H](CCCCN)NC(=O)[C@H](CC(=O)O)NC(=O)[C@H](CC(C)C)NC(=O)C(C)(C)NC(=O)[C@@H](NC(=O)[C@H](CO)NC(=O)[C@H](Cc1ccc(O)cc1)NC(=O)[C@H](CC(=O)O)NC(=O)[C@H](CO)NC(=O)[C@@H](NC(=O)[C@H](Cc1ccccc1)NC(=O)[C@@H](NC(=O)CNC(=O)[C@H](CCC(=O)O)NC(=O)C(C)(C)NC(=O)[C@@H](N)Cc1ccc(O)cc1)[C@@H](C)O)[C@@H](C)O)[C@@H](C)CC)[C@@H](C)CC)C(C)C)C(=O)N[C@@H](C)C(=O)NCC(=O)NCC(=O)N1CCC[C@H]1C(=O)N[C@@H](CO)C(=O)N[C@@H](CO)C(=O)NCC(=O)N[C@@H](C)C(=O)N1CCC[C@H]1C(=O)N1CCC[C@H]1C(=O)N1CCC[C@H]1C(=O)N[C@@H](CO)C(N)=O,,,"healthy subjects, single ascending dose","0.5 mg, baseline",serum amylase,75.1 ± 24.4 U/L
CCC(CC)COC(=O)[C@H](C)N[P@](=O)(OC[C@H]1O[C@@](C#N)(c2ccc3c(N)ncnn23)[C@H](O)[C@@H]1O)Oc1ccccc1,Severe acute respiratory syndrome coronavirus 2,"viral replication, inhibitor",Vero C1008,,EC50,2.5 µM
Oc1c(Cl)cc(Cl)c(Cl)c1Cc1c(O)c(Cl)cc(Cl)c1Cl,Severe acute respiratory syndrome coronavirus 2,antiviral activity,Huh-7,96 h,EC50,> 100 µM
CC(C)(C)OC(=O)N[C@H]1CCCCC/C=C\[C@@H]2C[C@@]2(C(=O)NS(=O)(=O)C2CC2)NC(=O)[C@@H]2C[C@@H](OC(=O)N3Cc4cccc(F)c4C3)CN2C1=O,Severe acute respiratory syndrome coronavirus 2,"viral replication, inhibitor",Vero C1008,,EC50,87 µM
Nc1ncnc2c1ncn2[C@@H]1O[C@H](C[C@@H](N)CC[C@H](N)C(=O)O)[C@@H](O)[C@H]1O,Severe acute respiratory syndrome coronavirus 2,antiviral activity,Huh-7,96 h,EC50,> 100 µM
CNC(=O)[C@@H](NC(=O)[C@H](CC(C)C)[C@H](O)C(=O)NO)C(C)(C)C,,prothrombin time,human platelet-poor plasma,"10 µM, together with: GA venom",inhibition,17% and 18% and 17.5%
COc1ccc2cc1Oc1ccc(cc1)C[C@H]1c3c(cc4c(c3Oc3cc5c(cc3OC)CCN(C)[C@@H]5C2)OCO4)CCN1C,Severe acute respiratory syndrome coronavirus 2,viral replication,"Vero C1008, USA_WA1/2020",72 h,EC50,1.41 µM

# A few entries again:
Compound,target or system,assay,test system,conditions,endpoint,value
C[C@@H]1CC[C@]2(C(=O)O[C@@H]3O[C@H](CO)[C@@H](O)[C@H](O)[C@H]3O)CC[C@]3(C)C(=CC[C@@H]4[C@@]5(C)C[C@@H](O)[C@H](O)C(C)(C)[C@@H]5CC[C@]43C)[C@@H]2[C@]1(C)O,rep main protease,"reporter gene (mKate2), inhibitor",,20 µM,inhibition,-0.0103%
CCC(CC)COC(=O)[C@H](C)N[P@](=O)(OC[C@H]1O[C@@](C#N)(c2ccc3c(N)ncnn23)[C@H](O)[C@@H]1O)Oc1ccccc1,Severe acute respiratory syndrome coronavirus 2,"cytopathic effect, inhibitor",,,EC50,2.6 µM
